{"data": "Results pooled from the literature", "T1": "riboswitch RNA yjdF aptamer (Bacillus subtilis); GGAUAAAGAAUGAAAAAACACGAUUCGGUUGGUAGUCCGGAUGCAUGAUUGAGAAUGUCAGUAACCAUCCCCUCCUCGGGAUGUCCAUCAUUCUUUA", "note": "Values joined by “and” are separate records of one study, mostly repeats; a detail may differ. ± gives the spread as reported.", "sequence of UniProt Q64663 (whole entry, unmodified, looked up)": "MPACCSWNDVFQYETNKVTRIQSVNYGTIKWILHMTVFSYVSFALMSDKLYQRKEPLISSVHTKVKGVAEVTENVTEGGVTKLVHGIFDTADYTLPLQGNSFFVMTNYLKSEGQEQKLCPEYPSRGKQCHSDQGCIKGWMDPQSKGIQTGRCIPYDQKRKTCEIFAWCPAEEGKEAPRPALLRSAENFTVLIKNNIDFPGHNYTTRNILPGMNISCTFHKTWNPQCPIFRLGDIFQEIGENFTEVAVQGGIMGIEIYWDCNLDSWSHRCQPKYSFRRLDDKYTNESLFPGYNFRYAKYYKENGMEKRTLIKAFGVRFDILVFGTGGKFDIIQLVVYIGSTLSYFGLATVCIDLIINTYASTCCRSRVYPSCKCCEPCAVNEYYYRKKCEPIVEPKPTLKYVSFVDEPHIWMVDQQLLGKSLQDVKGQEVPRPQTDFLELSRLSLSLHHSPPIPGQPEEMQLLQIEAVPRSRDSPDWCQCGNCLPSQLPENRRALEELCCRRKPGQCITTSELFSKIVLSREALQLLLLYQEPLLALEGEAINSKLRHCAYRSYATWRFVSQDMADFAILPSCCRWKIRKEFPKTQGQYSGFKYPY", "sequence of UniProt Q9UPE1 (whole entry, looked up)": "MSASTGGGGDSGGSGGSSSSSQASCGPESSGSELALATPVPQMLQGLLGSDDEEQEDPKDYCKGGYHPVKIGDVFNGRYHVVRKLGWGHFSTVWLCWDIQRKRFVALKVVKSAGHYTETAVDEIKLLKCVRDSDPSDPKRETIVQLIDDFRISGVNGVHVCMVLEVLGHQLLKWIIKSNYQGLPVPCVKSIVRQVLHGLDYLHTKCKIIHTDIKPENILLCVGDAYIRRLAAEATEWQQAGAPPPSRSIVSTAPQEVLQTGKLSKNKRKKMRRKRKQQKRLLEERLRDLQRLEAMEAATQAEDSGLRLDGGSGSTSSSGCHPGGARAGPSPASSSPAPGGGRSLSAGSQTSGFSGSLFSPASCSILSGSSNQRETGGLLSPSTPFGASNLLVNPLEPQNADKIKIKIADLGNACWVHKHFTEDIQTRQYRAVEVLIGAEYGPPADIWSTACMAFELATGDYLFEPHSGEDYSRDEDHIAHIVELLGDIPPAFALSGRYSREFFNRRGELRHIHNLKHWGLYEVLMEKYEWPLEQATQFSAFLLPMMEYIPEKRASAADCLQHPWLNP", "sequence of UniProt Q96D96 (whole entry, unmodified, looked up)": "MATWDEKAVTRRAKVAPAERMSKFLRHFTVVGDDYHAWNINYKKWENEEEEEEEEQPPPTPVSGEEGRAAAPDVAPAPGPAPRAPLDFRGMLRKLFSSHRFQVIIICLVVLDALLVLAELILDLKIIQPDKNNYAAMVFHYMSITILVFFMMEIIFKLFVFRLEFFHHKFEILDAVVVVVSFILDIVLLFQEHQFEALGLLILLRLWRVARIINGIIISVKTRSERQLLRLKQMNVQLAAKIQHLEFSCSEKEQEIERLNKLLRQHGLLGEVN", "sequence of UniProt P52564 (whole entry, looked up)": "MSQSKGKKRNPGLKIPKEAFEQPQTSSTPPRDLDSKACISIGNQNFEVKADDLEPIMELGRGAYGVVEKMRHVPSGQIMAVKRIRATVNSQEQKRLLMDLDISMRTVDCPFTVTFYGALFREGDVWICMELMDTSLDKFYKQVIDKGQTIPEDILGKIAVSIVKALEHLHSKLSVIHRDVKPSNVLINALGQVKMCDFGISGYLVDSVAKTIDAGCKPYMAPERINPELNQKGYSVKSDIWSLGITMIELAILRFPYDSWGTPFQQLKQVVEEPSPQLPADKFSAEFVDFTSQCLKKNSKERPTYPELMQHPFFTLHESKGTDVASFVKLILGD"}
{"SMILES": "O=C(COP(=O)(O)O)[C@@H](O)[C@H](O)[C@H](O)COP(=O)(O)O", "target": "Importin subunit alpha-1 (Homo sapiens, UniProt P52292)", "assay": "thermal proteome profiling, measured: KPNA2", "system": "HepG2 cell lysate", "conditions": "concentration not given, 57 over 37 °C", "how to read": "baseline: compound over control", "measurement": "thermal stability ratio", "value": "0.6 and 0.538 and 0.769"}
{"SMILES": "N=C(N)Nc1nc2ccccc2[nH]1", "target": "HVCN1 (Homo sapiens, UniProt Q96D96, F149W/F150A)", "assay": "proton current, inhibitor, inside-out patch clamp", "measurement": "Hill coefficient", "value": "0.92 ± 0.05"}
{"SMILES": "Cc1cc2nc3[nH]c(=O)[nH]c(=O)c3nc2cc1C", "target": "T1, riboswitch RNA yjdF aptamer (Bacillus subtilis)", "assay": "fluorescence titration", "conditions": "together with: 380 nM lumichrome", "measurement": "Kd", "value": "12 nM"}
{"SMILES": "CC[C@@H]1[C@H](F)C(=O)N[C@@H]1COc1nccc2cc(C(N)=O)c(OC)cc12", "target": "MAP2K6 (Homo sapiens, UniProt P52564)", "assay": "ATP-site probe binding, ActivX profiling", "system": "THP-1 cell lysate", "conditions": "0.04 mM, Lys2 site", "measurement": "inhibition", "value": "4.7%"}
{"SMILES": "O=C(O)c1ccc(Nc2ncc3c(n2)-c2ccc(Cl)cc2C(c2c(F)cccc2F)=NC3)cc1", "target": "human Syk(h)", "assay": "kinase activity", "conditions": "1 µM", "measurement": "remaining activity", "value": "99%"}
{"SMILES": "COc1cc(-c2cncc3c2CN(C)Cc2cc(N4CCNCC4)ccc2-3)cc(OC)c1OC", "target": "SRPK3 (Homo sapiens, UniProt Q9UPE1)", "assay": "kinase activity", "conditions": "1 µM, human enzyme, together with: ATP 10 µM", "how to read": "baseline: DMSO control", "measurement": "remaining activity", "value": "123%"}
{"SMILES": "CC[C@H](C)[C@H](NC(=O)[C@H](Cc1ccccc1)NC(=O)[C@H](CCC(=O)O)NC(=O)[C@H](CCCNC(=N)N)NC(=O)[C@H](C)NC(=O)[C@H](C)NC(=O)[C@H](CCC(N)=O)NC(=O)[C@H](CCC(=O)O)NC(=O)[C@H](CCC(=O)O)NC(=O)[C@H](CC(C)C)NC(=O)[C@H](Cc1ccc(O)cc1)NC(=O)[C@H](CO)NC(=O)[C@H](CO)NC(=O)[C@@H](NC(=O)[C@H](CC(=O)O)NC(=O)[C@H](CO)NC(=O)[C@@H](NC(=O)[C@H](Cc1ccccc1)NC(=O)[C@@H](NC(=O)CNC(=O)[C@H](CCC(=O)O)NC(=O)[C@H](C)NC(=O)CCc1cnc[nH]1)[C@@H](C)O)[C@@H](C)O)C(C)C)C(=O)N[C@@H](C)C(=O)N[C@@H](Cc1c[nH]c2ccccc12)C(=O)N[C@@H](CC(C)C)C(=O)N[C@H](C(=O)N[C@@H](CCCNC(=N)N)C(=O)NCC(=O)N[C@@H](CCCNC(=N)N)C(=O)N[C@@H](CCCCNC(=O)COCCOCCNC(=O)COCCOCCNC(=O)CC[C@H](NC(=O)CCCCCCCCCCCCCCCCC(=O)O)C(=O)O)C(=O)NCC(=O)NCC(=O)N[C@@H](CO)C(=O)N[C@@H](CCCCNC(=O)[C@H](CCCCNc1c(NCCCCCN(O)C(=O)CCC(=O)NCCCCCN(O)C(=O)CCC(=O)NCCCCCN(O)C(C)=O)c(=O)c1=O)Nc1c(NCCCCCN(O)C(=O)CCC(=O)NCCCCCN(O)C(=O)CCC(=O)NCCCCCN(O)C(C)=O)c(=O)c1=O)C(=O)O)C(C)C", "target": "GLP1R (Homo sapiens, UniProt P43220)", "assay": "agonist, CRE luciferase reporter", "system": "BHK cells", "conditions": "metal-free DFO conjugate, together with: 1% HSA", "how to read": "baseline: parent peptide", "measurement": "fold potency loss", "value": 1.7}
{"SMILES": "Nc1ncnc2c1ncn2[C@@H]1O[C@H](COP(=O)(O)OP(=O)(O)OP(=O)(O)O)[C@@H](O)[C@H]1O", "target": "P2X purinoceptor 7 (P2rx7, Rattus norvegicus, UniProt Q64663, I214A)", "assay": "ion current, agonist, two-electrode voltage clamp", "system": "Xenopus laevis oocytes", "conditions": "1.23 µM", "how to read": "baseline: highest concentration response", "measurement": "normalized current", "value": 0}
{"SMILES": "Nc1ccc2c(O)c(N=Nc3ccc(N=Nc4ccc(N=Nc5cc(S(=O)(=O)[O-])c6cccc(S(=O)(=O)[O-])c6c5)c5ccccc45)c4ccc(S(=O)(=O)[O-])cc34)c(S(=O)(=O)[O-])cc2c1.[Na+].[Na+].[Na+].[Na+]", "target": "alternative ancestral dye-decolorizing peroxidase", "assay": "peroxidase activity, substrate, steady-state kinetics", "conditions": "25 °C, pH 3 ABTS, 4 others", "measurement": "kcat", "value": "0.81 s⁻¹"}
{"SMILES": "CO/N=C(\\C(=O)N[C@@H]1C(=O)N2C(C(=O)O)=C(COC(N)=O)CS[C@H]12)c1ccco1", "target": "beta-lactamase RAD-1 (Riemerella anatipestifer)", "assay": "substrate, continuous spectrophotometric hydrolysis", "conditions": "30 °C", "measurement": "Km", "value": "297 ± 19 µM"}
{"note": "Repeated from above:"}
{"SMILES": "O=C(COP(=O)(O)O)[C@@H](O)[C@H](O)[C@H](O)COP(=O)(O)O", "target": "Importin subunit alpha-1 (Homo sapiens, UniProt P52292)", "assay": "thermal proteome profiling, measured: KPNA2", "system": "HepG2 cell lysate", "conditions": "concentration not given, 57 over 37 °C", "how to read": "baseline: compound over control", "measurement": "thermal stability ratio", "value": "0.6 and 0.538 and 0.769"}
